Measured values gathered from unrelated publications.
Numbered parts are unrelated; each lists some results of a single study. Substitutions count along the parent as printed.

Set 1
Target: Sal-like protein 4, full length isoform B (SALL4, Homo sapiens, UniProt Q9UJQ4-2, residues 1-616)
Method: universal PBM
Form: double-stranded DNA, one strand shown
Matrix: in vitro
Tested at: not given
Notes: 8-mer, flanks averaged, mean of replicates
Reading: higher = stronger binding
Strand | E-score
AGTGCCAC | -0.157
CTTCTTCA | 0.0196
AGAGATCA | -0.0448
TAAACTGA | 0.117

Set 2
Target: RING finger protein unkempt homolog, zinc fingers 1-6, GST-SBP tag (UNK, Homo sapiens, UniProt Q9C0B0, residues 30-357)
Chain of UniProt Q9C0B0 (30-357, looked up): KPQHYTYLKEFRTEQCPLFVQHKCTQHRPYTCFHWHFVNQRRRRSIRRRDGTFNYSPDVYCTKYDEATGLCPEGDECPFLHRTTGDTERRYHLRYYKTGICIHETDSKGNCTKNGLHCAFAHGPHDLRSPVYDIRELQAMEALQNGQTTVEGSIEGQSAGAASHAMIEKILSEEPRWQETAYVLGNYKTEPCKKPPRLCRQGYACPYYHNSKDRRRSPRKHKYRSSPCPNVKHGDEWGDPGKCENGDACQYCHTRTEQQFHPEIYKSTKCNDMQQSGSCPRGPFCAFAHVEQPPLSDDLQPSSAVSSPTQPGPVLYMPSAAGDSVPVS
Method: RNA Bind-n-Seq
Form: RNA
Matrix: in vitro
Tested at: not given
Notes: RNA with constant flanks, human and mouse sites, ends assumed
Relative to: input RNA pool
Reading: higher = stronger binding
Strand | bound/input enrichment [ratio]
GGGAGUUCUACAGUCCGACGAUCGACCACGAUGAGUGUGCCGCACUUCCGGCCAGAUCGCCGGAUUUCCGCUGAGUGACCCUUACAAGUCCUUCUUGAUCCUGAACUGGGUUAGGUGCCGCUGUUGCUGCUCGUGUUGAAUCUCAACAGAGGAUUGAGCAUCA | 0.109
GGGAGUUCUACAGUCCGACGAUCACCAAGUGUACUGUACUCACCCCCCAGGAUAGAGAAGUGUUUGUUAGGGAGAGAAGAGGGAGAGGCAGGAGCCGGCCCAAGCCCAGGGUCCCUGCUUGGGCCCCAGAAAGCACUUAACCACAACAGAGGAUUGAGCAUCA | 0.484
GGGAGUUCUACAGUCCGACGAUCCAUCGCAUGCCCAGGGACCACUGCCUGGCAUUAUCGCAUGCUGGGAUCAUCGGGGGAGGGUAGUGAAGCUCACCACUGUCCUUUGUUUUGGAGAUUUUUAUUUUUGCAUAAGUAGUCCAUCAACAGAGGAUUGAGCAUCA | 0.23
GGGAGUUCUACAGUCCGACGAUCAUUUUGCUUUUUUCCCCUCACAUUGAAUUUUAAUUCCAUUCUUGAAUGUAGAAAUUUCAGAUUCUCUAAAACUACAUGUCACUGUUUUUAUCCUAGAAAAUGUUGCUGUCAGAAGGCAAACAACAGAGGAUUGAGCAUCA | 0.461

Mixed results
CCNE2: CCNE2, cyclin fold, Cln2 fusion (human)
P1: PKMYT1 docking peptide (human); SFEPRNLLSLFED; partner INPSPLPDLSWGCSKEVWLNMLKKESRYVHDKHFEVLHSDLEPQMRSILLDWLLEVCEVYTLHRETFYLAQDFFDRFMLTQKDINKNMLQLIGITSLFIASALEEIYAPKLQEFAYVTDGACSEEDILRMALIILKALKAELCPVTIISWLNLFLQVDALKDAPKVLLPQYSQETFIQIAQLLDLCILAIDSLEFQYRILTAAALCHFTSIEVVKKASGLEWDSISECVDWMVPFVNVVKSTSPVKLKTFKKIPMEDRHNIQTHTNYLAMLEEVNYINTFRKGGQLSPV
P2: BRCA2 docking peptide (human); PSIKRNLLNEFDR; partner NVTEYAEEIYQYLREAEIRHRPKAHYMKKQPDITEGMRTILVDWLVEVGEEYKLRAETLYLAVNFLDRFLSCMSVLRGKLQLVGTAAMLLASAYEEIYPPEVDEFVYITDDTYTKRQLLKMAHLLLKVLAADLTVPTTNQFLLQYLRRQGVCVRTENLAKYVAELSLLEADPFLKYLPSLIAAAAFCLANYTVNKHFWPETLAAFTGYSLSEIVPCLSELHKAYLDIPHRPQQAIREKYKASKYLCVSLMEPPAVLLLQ
P3: CDC25A docking peptide (human); PPHRRRLLFACSP
Molecule | target | assay | test system | conditions | scale | measurement | value
P1 N6Y | CCNE2 | yeast growth competition, sequencing | yeast | weak parent motif | relative to: not given, higher = stronger binding | normalised enrichment score | -0.067
PhoQ, residues 284 288 289 292 302 303 SLGVVW | PhoP, residues 12 14 15 18 19 AQALL (Escherichia coli, UniProt P23836) | Sort-seq, measured: YFP reporter | E. coli | PhoQ-PhoP variant library, with: 10 µM Mg2+ | relative to: high Mg2+ state, higher = stronger signaling | fold induction | 16.8
P1 F11G | CCNE2 | yeast growth competition, sequencing | yeast | weak parent motif | relative to: not given, higher = stronger binding | normalised enrichment score | -0.374
P2 P1K | CCNA1, cyclin fold, Cln2 fusion (human) | yeast growth competition, sequencing | yeast | weak parent motif | relative to: not given, higher = stronger binding | normalised enrichment score | 0.514
P3 R4F | CCNA2, cyclin fold, Cln2 fusion (human) | yeast growth competition, sequencing | yeast | strong parent motif | relative to: not given, higher = stronger binding | normalised enrichment score | 2.15

Excerpt of the above (set 1):
Strand | E-score
AGTGCCAC | -0.157
